Experimental data collected from several papers.
Lines come from different studies, so protocols differ. ± marks the error that the study gave.
Chain of UniProt Q92630 (whole entry, looked up): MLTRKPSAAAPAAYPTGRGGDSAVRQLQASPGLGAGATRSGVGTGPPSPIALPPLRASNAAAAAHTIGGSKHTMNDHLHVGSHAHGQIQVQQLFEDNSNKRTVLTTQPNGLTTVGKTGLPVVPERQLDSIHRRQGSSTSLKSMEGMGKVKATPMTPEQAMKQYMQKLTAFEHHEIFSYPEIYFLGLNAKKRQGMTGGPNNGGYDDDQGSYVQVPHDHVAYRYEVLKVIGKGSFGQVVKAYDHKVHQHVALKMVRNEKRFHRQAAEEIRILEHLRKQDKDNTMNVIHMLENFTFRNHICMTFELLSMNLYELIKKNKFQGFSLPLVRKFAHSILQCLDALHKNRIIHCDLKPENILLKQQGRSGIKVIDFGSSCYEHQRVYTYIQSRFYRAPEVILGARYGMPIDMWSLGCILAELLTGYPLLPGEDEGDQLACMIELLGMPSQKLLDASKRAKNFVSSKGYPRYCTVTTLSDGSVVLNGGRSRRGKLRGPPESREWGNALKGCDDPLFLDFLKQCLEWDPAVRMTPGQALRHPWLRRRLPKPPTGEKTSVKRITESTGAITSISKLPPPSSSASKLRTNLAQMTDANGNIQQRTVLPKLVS
Chain of UniProt Q8TF76 (whole entry, looked up): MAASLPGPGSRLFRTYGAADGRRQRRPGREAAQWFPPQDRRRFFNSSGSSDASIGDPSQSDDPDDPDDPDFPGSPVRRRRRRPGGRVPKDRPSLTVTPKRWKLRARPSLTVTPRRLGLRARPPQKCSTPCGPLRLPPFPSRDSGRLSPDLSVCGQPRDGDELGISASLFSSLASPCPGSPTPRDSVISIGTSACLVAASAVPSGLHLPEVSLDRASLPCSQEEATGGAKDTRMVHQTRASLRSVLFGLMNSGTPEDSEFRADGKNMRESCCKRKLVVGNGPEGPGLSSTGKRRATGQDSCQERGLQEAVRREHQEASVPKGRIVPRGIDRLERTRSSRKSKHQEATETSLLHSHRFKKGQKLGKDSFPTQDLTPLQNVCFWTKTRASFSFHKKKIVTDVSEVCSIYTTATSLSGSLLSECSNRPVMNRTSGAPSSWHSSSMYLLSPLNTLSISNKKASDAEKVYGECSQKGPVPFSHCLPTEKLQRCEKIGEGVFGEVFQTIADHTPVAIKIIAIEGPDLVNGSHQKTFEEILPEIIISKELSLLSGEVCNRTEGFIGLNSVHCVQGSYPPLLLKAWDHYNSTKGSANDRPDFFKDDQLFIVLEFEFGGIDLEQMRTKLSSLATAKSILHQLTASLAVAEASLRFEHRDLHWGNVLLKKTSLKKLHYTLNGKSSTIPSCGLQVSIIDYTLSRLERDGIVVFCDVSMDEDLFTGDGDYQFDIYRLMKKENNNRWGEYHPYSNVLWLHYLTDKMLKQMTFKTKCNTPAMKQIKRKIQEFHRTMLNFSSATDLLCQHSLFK
Chain of UniProt Q7L7X3 (whole entry, looked up): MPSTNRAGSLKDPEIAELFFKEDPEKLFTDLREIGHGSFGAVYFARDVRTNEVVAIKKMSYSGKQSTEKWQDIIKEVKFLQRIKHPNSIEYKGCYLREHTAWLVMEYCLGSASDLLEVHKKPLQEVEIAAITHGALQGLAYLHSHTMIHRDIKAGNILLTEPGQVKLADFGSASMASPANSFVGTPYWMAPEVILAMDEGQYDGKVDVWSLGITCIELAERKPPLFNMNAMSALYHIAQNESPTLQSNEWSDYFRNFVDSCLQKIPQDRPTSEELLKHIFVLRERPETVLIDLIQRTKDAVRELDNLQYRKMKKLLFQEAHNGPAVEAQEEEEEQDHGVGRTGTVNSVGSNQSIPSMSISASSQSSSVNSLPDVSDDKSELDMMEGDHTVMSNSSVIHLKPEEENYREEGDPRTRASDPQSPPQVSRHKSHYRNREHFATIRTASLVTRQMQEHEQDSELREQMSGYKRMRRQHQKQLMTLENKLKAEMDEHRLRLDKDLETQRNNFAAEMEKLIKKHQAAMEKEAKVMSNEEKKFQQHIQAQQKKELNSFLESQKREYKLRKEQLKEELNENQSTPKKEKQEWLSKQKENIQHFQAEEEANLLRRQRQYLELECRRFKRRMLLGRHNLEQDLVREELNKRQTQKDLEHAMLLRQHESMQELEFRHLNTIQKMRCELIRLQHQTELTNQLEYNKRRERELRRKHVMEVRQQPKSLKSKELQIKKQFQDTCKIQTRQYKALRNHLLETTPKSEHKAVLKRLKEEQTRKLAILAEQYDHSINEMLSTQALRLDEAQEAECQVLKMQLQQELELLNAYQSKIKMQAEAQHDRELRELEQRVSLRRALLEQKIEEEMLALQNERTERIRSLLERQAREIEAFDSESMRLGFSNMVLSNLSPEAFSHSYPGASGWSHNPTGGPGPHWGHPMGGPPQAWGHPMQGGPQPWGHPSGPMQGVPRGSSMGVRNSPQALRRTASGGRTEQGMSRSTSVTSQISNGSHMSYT

SMILES | target or system | assay | system | conditions | scale | endpoint | value
Cc1cccc(-c2cccc(C)n2)n1.Cc1cccc(-c2cccc(C)n2)n1.F[P-](F)(F)(F)(F)F.F[P-](F)(F)(F)(F)F.[Ru+2].c1ccc2c(-c3nc4c5cccnc5c5ncccc5c4[nH]3)cccc2c1 | SK-MEL-28 | cell viability | – | normoxia, together with: green light 523 nm, 100 J/cm2 | – | EC50 | 22.3 ± 0.6 µM
O=C(C[Se]C(=O)c1ccccc1)Nc1cccc(C(F)(F)F)c1 | NCI60 prostate subpanel (PC-3, DU-145) | cell growth, inhibitor | – | five-dose | – | GI50 | 2.34 µM
CC(C)[C@H](NC(=O)[C@H](CCCNC(=N)N)NC(=O)[C@@H]1CCCN1C(=O)[C@@H](NC(=O)[C@H](C)NC(=O)[C@H](Cc1ccc(O)cc1)NC(=O)[C@H](CCC(N)=O)NC(=O)[C@H](CCCCN)NC(=O)[C@H](CCCNC(=N)N)NC(=O)[C@@H]1CCCN1C(=O)[C@H](CCC(=O)O)NC(=O)[C@@H](NC(=O)[C@H](C)N)[C@@H](C)O)[C@@H](C)O)C(=O)N[C@@H](Cc1ccccc1)C(=O)N[C@@H](Cc1c[nH]c2ccccc12)C(=O)N[C@H](C(=O)N[C@@H](CC(=O)O)C(=O)N[C@@H](C)C(=O)N1CCC[C@H]1C(=O)NCC(=O)NCCOCCOCCOCCOCCOCCOCCOCCOCCOCCOCCOCCOCCC(=O)N[C@@H](CS)C(N)=O)[C@@H](C)O | H1666 lung adenocarcinoma | cell binding, phage binding, refers to: output/input phage | – | 10 min, 37 °C | reference: control phage | selectivity ratio | 0.42 ± 0.092
CC(C)[C@H]1NC(=O)C[C@H]2/C=C/CCSSC[C@@H](NC1=O)C(=O)N[C@H](Cc1cccc3ccccc13)C(=O)NCC(=O)O2 | HASPIN (Homo sapiens, UniProt Q8TF76) | enzyme activity, inhibitor | – | 10 µM | – | inhibition | 5.8%
COc1ccccc1-c1n[nH]c2nc(N[C@H]3CC[C@H](NS(=O)(=O)CC(C)C)CC3)ncc12 | – | bead binding, competition bead pull-down, refers to: LMJF.30.2550 | Leishmania donovani extract | 10 µM | reference: vehicle | relative abundance | 0.84
CS(C)(=O)=Nc1ccc(-c2ccc(-c3nc4cc(O[C@@H]5CO[C@H]6[C@@H]5OC[C@H]6O)[nH]c4cc3F)cc2)cc1 | TAOK1 (Homo sapiens, UniProt Q7L7X3) | enzyme activity, inhibitor | – | 10 µM | – | inhibition | 6%
CC(C)(C)C(=O)OCOP(=O)(OCOC(=O)C(C)(C)C)C1CCCN(O)C1=O (stereo not shown) | SF-268 | – | – | – | – | CC50 | > 100 µM
CC(C)CC(O)(CC(C)C)c1cn(C(=O)N2CCCC2)nn1 | mouse T-cells | SILAC proteomics, refers to: NDRG1 | – | 1 nM, 6 h, unit not given | reference: DMSO | protein level | 0.98
COc1ccccc1-c1n[nH]c2nc(NC3CCN(C(=O)Cc4ccc(F)cc4F)CC3)ncc12 | – | bead binding, competition bead pull-down, refers to: LINJ.35.1820 | Leishmania donovani extract | 10 µM | reference: vehicle | relative abundance | 1.14
COc1ccccc1-c1ccncc1C(=O)Nc1nnc(OCc2ccc(Cl)cc2)s1 | RPE-1 BRCA1 WT parental | – | – | 0.5 µM, run 2 | reference: untreated | colony survival | 78.9%
Cc1cc(Oc2nc(N3CC[C@@H](c4ccncc4)C3)ncc2F)[nH]n1 | IMR-90 | cell proliferation | lung cancer | – | – | IC50 | > 100 µM
O=C1NC(=O)c2c1c1cc(F)c[n+]3c1c1c2c2cc(O)ccc2[n]1[Ru-4]312([N]=C=S)[S+]3CC[S+]1CC[S+]2CC3 (stereo not shown) | DYRK2 (Homo sapiens, UniProt Q92630) | enzyme activity | – | 100 nM, human enzyme, together with: 10 µM ATP | reference: untreated | remaining activity | 110%
O=C(C[Se]C(=O)c1cc2ccccc2s1)Nc1cccc(C(F)(F)F)c1 | NCI60 NSCLC subpanel | NCI60 five-dose screen | – | – | – | CC50 | 5.93 µM
CC(=O)NCSC[C@H](NC(=O)[C@@H]1CCCN1C(=O)[C@H](C)NC(=O)[C@@H](NC(=O)CNC(=O)[C@@H](NC(=O)[C@H](Cc1c[nH]c2ccccc12)NC(=O)[C@H](C)NC(=O)CNC(=O)[C@H](CO)NC(=O)[C@H](C)NC(=O)[C@@H]1CCCN1C(=O)[C@H](Cc1c[nH]c2ccccc12)NC(=O)[C@H](C)NC(=O)[C@H](C)NC(=O)[C@@H](N)Cc1ccc(O)cc1)[C@@H](C)O)[C@@H](C)O)C(=O)N[C@@H](CO)C(=O)N[C@@H](C)C(=O)NCC(=O)N[C@H](C(=O)NCCOCCOCCOCCOCCOCCOCCOCCOCCOCCOCCOCCOCCC(=O)N[C@@H](CS)C(N)=O)[C@@H](C)O | H1648 | phage binding | – | 10 min, 37 °C | reference: control phage | selectivity ratio | 14 ± 2
CC[C@H](C)[C@H](NC(=O)[C@H](CO)NC(=O)[C@H](Cc1ccc(O)cc1)NC(=O)[C@H](Cc1ccc(O)cc1)NC(=O)[C@H](CC(N)=O)NC(=O)CNC(=O)[C@H](CO)NC(=O)[C@H](Cc1ccc(O)cc1)NC(=O)[C@H](CO)NC(=O)[C@H](CO)NC(=O)[C@H](CC(N)=O)NC(=O)COCCOCCNC(=O)CN1CCN(CC(=O)O)CCN(CC(=O)O)CCN(CC(=O)O)CC1)C(=O)N[C@@H](CC(C)C)C(N)=O [copper-64 labelled] | – | dynamic PET | mouse, tamoxifen-induced PDAC, tumor | intravenous, 0.1 µg/mouse, 1.6 min | – | tumour uptake | 14.9 %ID/mL
O=C(C[Se]C(=O)c1ccco1)Nc1cccc(C(F)(F)F)c1 | NCI60 prostate subpanel (PC-3, DU-145) | total growth inhibition, inhibitor | – | five-dose | – | mean TGI | 14.7 µM
CSCC[C@H](NC(=O)[C@@H](NC(=O)[C@H](CCC(N)=O)NC(=O)[C@H](CO)NC(=O)[C@@H](N)C(C)C)[C@@H](C)O)C(=O)N[C@@H](CCCNC(=N)N)C(=O)N[C@@H](CCC(N)=O)C(=O)N[C@H](C(=O)N[C@@H](C)C(=O)N[C@H](C(=O)N1CCC[C@H]1C(=O)N[C@@H](CC(C)C)C(=O)N[C@@H](CC(C)C)C(=O)N[C@@H](Cc1c[nH]c2ccccc12)C(=O)N[C@@H](Cc1ccccc1)C(=O)N[C@@H](Cc1c[nH]c2ccccc12)C(=O)N[C@H](C(=O)NCC(=O)N[C@@H](CO)C(=O)N[C@@H](CC(C)C)C(=O)NCCOCCOCCOCCOCCOCCOCCOCCOCCOCCOCCOCCOCCC(=O)N[C@@H](CS)C(N)=O)[C@@H](C)O)C(C)C)[C@@H](C)O | H661 lung large cell carcinoma | cell binding, phage binding, refers to: output/input phage | – | 10 min, 37 °C | reference: control phage | selectivity ratio | 2.8 ± 1
O=C(C[Se]C(=O)c1cccs1)Nc1cccc(C(F)(F)F)c1 | NCI60 ovarian subpanel | cell growth, inhibitor | – | five-dose | – | GI50 | 1.74 µM
O=C(O)c1ccc(-c2nc(-c3ccccc3Cl)c3sccn23)cc1 | K562 | megakaryocyte differentiation, flow cytometry | – | 0.01 mM, 48 h | reference: untreated | CD61 fluorescence intensity | 1.02 fold change
CC(C)C[C@H](NC(=O)[C@H](CC(=O)O)NC(=O)CNC(=O)[C@@H](N)CCCNC(=N)N)C(=O)N[C@@H](C)C(=O)N[C@H](C(=O)N[C@@H](CC(C)C)C(=O)N[C@@H](CCCNC(=N)N)C(=O)N[C@@H](CCC(N)=O)C(=O)N[C@@H](CC(C)C)C(=O)N[C@@H](C)C(=O)N[C@@H](CCC(N)=O)C(=O)N[C@@H](CCC(=O)O)C(=O)N[C@@H](CC(=O)O)C(=O)NCC(=O)N[C@H](C(=O)N[C@H](C(=O)NCC(=O)N[C@H](C(=O)N[C@@H](CCCNC(=N)N)C(=O)NCCOCCOCCOCCOCCOCCOCCOCCOCCOCCOCCOCCOCCC(=O)N[C@@H](CS)C(N)=O)C(C)C)C(C)C)C(C)C)[C@@H](C)O | MDA-MB-468 breast cancer | cell binding, phage binding, refers to: output/input phage | – | 10 min, 37 °C | reference: control phage | selectivity ratio | 25 ± 7.6
O=C(C[Se]C(=O)c1ccc2ccccc2c1)Nc1cccc(C(F)(F)F)c1 | NCI60 prostate subpanel (PC-3, DU-145) | cytotoxicity, inhibitor | – | five-dose | – | CC50 | 7.05 µM
O=C1NC2(CC2)COc2ncc(F)cc2[C@H]2COCCN2c2ccn3ncc1c3n2 | – | – | Sprague-Dawley rat, female, serum | oral, 10 mg/kg/day, end of treatment, 4-week subacute toxicity | – | serum total bilirubin | 0.7 ± 0.3 µmol/L

Excerpt of the above:
SMILES | target or system | assay | system | conditions | scale | endpoint | value
O=C(O)c1ccc(-c2nc(-c3ccccc3Cl)c3sccn23)cc1 | K562 | megakaryocyte differentiation, flow cytometry | – | 0.01 mM, 48 h | reference: untreated | CD61 fluorescence intensity | 1.02 fold change
O=C(C[Se]C(=O)c1ccc2ccccc2c1)Nc1cccc(C(F)(F)F)c1 | NCI60 prostate subpanel (PC-3, DU-145) | cytotoxicity, inhibitor | – | five-dose | – | CC50 | 7.05 µM
